Published values gathered from unrelated publications.
Lines come from different studies, so protocols differ. Values joined by “and” are separate records of one study, mostly repeats; a detail may differ. ± gives the spread as reported.

The tissue uptake of `CCCC[C@H]1C(=O)N(C)[C@@H](CCCC)C(=O)N[C@@H](CCCNC(=O)CN2CCN(CC(=O)O)CCN(CC(=O)O)CCN(CC(=O)O)CC2)C(=O)N[C@H](C(=O)NCC(N)=O)CSCC(=O)N[C@@H](Cc2ccc(O)cc2)C(=O)N(C)[C@@H](C)C(=O)N[C@@H](CC(N)=O)C(=O)N2CCC[C@H]2C(=O)N[C@@H](Cc2c[nH]cn2)C(=O)N[C@@H](CC(C)C)C(=O)N(C)CC(=O)N[C@@H](Cc2c[nH]c3ccccc23)C(=O)N[C@@H](CO)C(=O)N[C@@H](Cc2c[nH]c3ccccc23)C(=O)N1C` [gallium-68 labelled] is reported as 2.77 ± 0.45 %ID/g (NOD/SCID mice, CHO-hPD-L1 xenograft, stomach; 60 min, atezolizumab 10 mg/kg pretreatment).
`O=C1NC2(CC2)COc2ncc(F)cc2[C@H]2COCCN2c2ccn3ncc1c3n2`: “organ-to-body weight ratio” 0.412 ± 0.01% (Sprague-Dawley rat, male, brain; oral, 10 mg/kg/day, 4 weeks dosing, end of recovery).
`CC(C)C[C@@H](NC(=O)[C@@H](CCCNC(=N)N)NC(=O)[C@@H](Cc1c[nH]cn1)NC(=O)[C@@H](Cc1c[nH]c2ccccc12)NC(=O)[C@@H](Cc1c[nH]cn1)NC(=O)[C@@H](Cc1ccccc1)NC(=O)[C@H](NC(=O)[C@@H](Cc1ccc(O)cc1)NC(=O)CNC(=O)CNC(=O)CCOCCOCCOCCNC(=O)CN1CCN(CC(=O)O)CCN(CC(=O)O)CC1)[C@H](C)O)C(=O)N[C@H](CC(N)=O)C(=O)N1CCC[C@@H]1C(=O)O` [gallium-68 labelled] gave a tissue uptake of 0.91 ± 0.34 %ID/g (C57BL/6 mice, male, pancreas; intravenous, 1.85 MBq, 60 min, added: blocking antibody).
`Cc1ccc(OCCN(C)C)cc1C(=O)N[C@H](C)c1cc(-c2scnc2C)nc2ccccc12` gave a viability of 0.2% and -0.4% (Vero E6; 250 µM).
`CSCC[C@H](NC(=O)CNC(=O)[C@H](CCCCN)NC(=O)[C@H](CC(C)C)NC(=O)[C@@H]1CCCN1C(=O)[C@H](CO)NC(=O)[C@H](Cc1c[nH]cn1)NC(=O)[C@H](Cc1c[nH]c2ccccc12)NC(=O)[C@H](CCCNC(=N)N)NC(=O)[C@H](CC(C)C)NC(=O)[C@H](CCCNC(=N)N)NC(=O)[C@H](Cc1c[nH]c2ccccc12)NC(=O)[C@H](CS)NC(=O)CCCCCNC(=O)CN1CCN(CC(=O)O)CCN(CC(=O)O)CCN(CC(=O)O)CC1)C(=O)O` [copper-64 labelled] has a tissue uptake of 0.32 %ID/g (ex vivo biodistribution; male C57BL/6J mice, muscle; intravenous, 1.85 MBq, 18 h, B16-F10 tumour-bearing).
`CC[C@H](C)[C@H](NC(=O)[C@H](CCCNC(=N)N)NC(=O)[C@H](CCCCN)NC(=O)[C@H](Cc1ccc(O)cc1)NC(=O)[C@H](CC(=O)O)NC(=O)[C@H](C)NC(=O)CNC(=O)CCOCCOCCOCCNC(=O)CN1CCN(CC(=O)O)CCN(CC(=O)O)CCN(CC(=O)O)CC1)C(=O)N[C@H](C(=O)N[C@@H](CC(C)C)C(=O)N[C@@H](CCCCN)C(=O)N[C@H](C(=O)N[C@@H](CC(N)=O)C(N)=O)C(C)C)[C@@H](C)O` [copper-64 labelled] has a tissue uptake of 0.939 ± 0.285 %ID/g (ex vivo gamma counting; C57BL/6J male mice, B16-F10 tumour, muscle; intravenous, 1.85 MBq, 20 min).
With `C[C@H](O)[C@@H](NC(=O)[C@H]1CCCN1C(=O)[C@@H](CCCCN)NC(=O)[C@@H](CO)NC(=O)[C@@H](Cc1ccc(O)cc1)NC(=O)[C@@H](CC(N)=O)NC(=O)CCOCCOCCOCCNC(=O)CN1CCN(CC(=O)O)CCN(CC(=O)O)CCN(CC(=O)O)CC1)C(=O)N[C@H](CC(=O)O)C(=O)N[C@H](CCCNC(=N)N)C(=O)N[C@H](CCC(N)=O)C(=O)N[C@H](Cc1ccc(O)cc1)C(=O)N[C@H](Cc1c[nH]cn1)C(=O)N[C@H](Cc1ccccc1)C(N)=O` [gallium-68 labelled] the tissue uptake was 0.16 ± 0.04 %ID/g (BALB/c nude mice U-87 MG tumour, liver; intravenous, 1.85 MBq, 2 h, radiolabelled).
The tissue uptake of `CC[C@H](C)[C@H](NC(=O)[C@H](CCCNC(=N)N)NC(=O)[C@H](CCCCN)NC(=O)[C@H](Cc1ccc(O)cc1)NC(=O)[C@H](CC(=O)O)NC(=O)[C@H](C)NC(=O)CNC(=O)CCOCCOCCOCCNC(=O)CN1CCN(CC(=O)O)CCN(CC(=O)O)CCN(CC(=O)O)CC1)C(=O)N[C@H](C(=O)N[C@H](C(=O)N[C@@H](CCCCN)C(=O)N[C@H](C(=O)N[C@@H](CC(N)=O)C(N)=O)C(C)C)C(C)C)[C@@H](C)O` [copper-64 labelled] is reported as 1.53 ± 0.081 %ID/g (ex vivo gamma counting; C57BL/6J male mice, B16-F10 tumour, blood; intravenous, 1.85 MBq, 40 min).
For `Cc1ccc(OCCN(C)C)cc1C(=O)N[C@H](C)c1cc(-c2cccs2)nc2ccccc12`, the viability was 4.81% (Vero E6; 31.25 µM).
`CN1Cc2cc(Cl)ccc2-n2c(nnc2C2CCN(c3cccc([18F])n3)CC2)C1` gave a tissue uptake of 11.8 ± 4.88 %ID/g (C57BL/6 mouse male, lung; intravenous, 3.7 MBq, 1 min).
The tissue uptake of `CC[C@H](C)[C@H](NC(=O)[C@H](CCCCN)NC(=O)CNC(=O)[C@H](CC(C)C)NC(=O)[C@H](Cc1ccccc1)NC(=O)[C@H](CCCCN)NC(=O)[C@H](CO)NC(=O)[C@H](Cc1ccccc1)NC(=O)[C@H](Cc1c[nH]c2ccccc12)NC(=O)[C@H](CCC(N)=O)NC(=O)[C@@H](NC(=O)[C@H](Cc1ccccc1)NC(=O)CCCCCNC(=O)CN1CCN(CC(=O)O)CCN(CC(=O)O)CCN(CC(=O)O)CC1)C(C)C)C(=O)N[C@@H](CCC(=O)O)C(=O)N1CCC[C@H]1C(=O)N[C@@H](CC(=O)O)C(=O)N[C@H](C(=O)N[C@@H](CO)C(=O)N[C@@H](CCC(N)=O)C(=O)N[C@H](C(=O)N[C@@H](CCC(N)=O)C(=O)N[C@@H](CC(=O)O)C(=O)N1CCC[C@H]1C(=O)N[C@@H](CC(N)=O)C(=O)N[C@@H](CC(=O)O)C(=O)N[C@@H](CCC(N)=O)C(=O)N[C@@H](Cc1ccc(O)cc1)C(=O)N[C@@H](CCC(=O)O)C(=O)N1CCC[C@H]1C(=O)N[C@@H](Cc1ccccc1)C(=O)O)C(C)C)C(C)C` [copper-64 labelled] is reported as 1.22 ± 0.2 %ID/g (C57BL/6 mice, thymus; added: LPS 0.1 mg/kg intratracheal).

A few entries again:
`CN1Cc2cc(Cl)ccc2-n2c(nnc2C2CCN(c3cccc([18F])n3)CC2)C1` gave a tissue uptake of 11.8 ± 4.88 %ID/g (C57BL/6 mouse male, lung; intravenous, 3.7 MBq, 1 min).
